Assay results of several laboratories.
Parts stem from different laboratories: compare values within a part only. Positions count from the first letter of the parent shown.
Sequence of UniProt O24408 (whole entry, looked up): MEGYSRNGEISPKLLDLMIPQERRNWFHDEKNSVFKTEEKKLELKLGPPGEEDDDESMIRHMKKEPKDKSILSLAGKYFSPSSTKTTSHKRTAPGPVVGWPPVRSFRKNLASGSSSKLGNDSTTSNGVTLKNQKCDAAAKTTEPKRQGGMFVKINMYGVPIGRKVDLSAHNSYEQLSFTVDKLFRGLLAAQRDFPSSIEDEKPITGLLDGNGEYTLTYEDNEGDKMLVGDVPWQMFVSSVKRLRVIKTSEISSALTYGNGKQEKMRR
Sequence of UniProt Q38829 (whole entry, looked up): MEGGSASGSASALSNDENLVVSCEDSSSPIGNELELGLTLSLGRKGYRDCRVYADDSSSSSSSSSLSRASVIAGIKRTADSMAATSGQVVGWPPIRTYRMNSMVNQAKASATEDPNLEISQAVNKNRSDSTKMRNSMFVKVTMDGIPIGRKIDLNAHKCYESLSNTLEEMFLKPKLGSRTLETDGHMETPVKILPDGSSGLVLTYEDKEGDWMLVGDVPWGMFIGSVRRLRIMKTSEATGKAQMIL
Sequence of UniProt P93022 (whole entry, looked up): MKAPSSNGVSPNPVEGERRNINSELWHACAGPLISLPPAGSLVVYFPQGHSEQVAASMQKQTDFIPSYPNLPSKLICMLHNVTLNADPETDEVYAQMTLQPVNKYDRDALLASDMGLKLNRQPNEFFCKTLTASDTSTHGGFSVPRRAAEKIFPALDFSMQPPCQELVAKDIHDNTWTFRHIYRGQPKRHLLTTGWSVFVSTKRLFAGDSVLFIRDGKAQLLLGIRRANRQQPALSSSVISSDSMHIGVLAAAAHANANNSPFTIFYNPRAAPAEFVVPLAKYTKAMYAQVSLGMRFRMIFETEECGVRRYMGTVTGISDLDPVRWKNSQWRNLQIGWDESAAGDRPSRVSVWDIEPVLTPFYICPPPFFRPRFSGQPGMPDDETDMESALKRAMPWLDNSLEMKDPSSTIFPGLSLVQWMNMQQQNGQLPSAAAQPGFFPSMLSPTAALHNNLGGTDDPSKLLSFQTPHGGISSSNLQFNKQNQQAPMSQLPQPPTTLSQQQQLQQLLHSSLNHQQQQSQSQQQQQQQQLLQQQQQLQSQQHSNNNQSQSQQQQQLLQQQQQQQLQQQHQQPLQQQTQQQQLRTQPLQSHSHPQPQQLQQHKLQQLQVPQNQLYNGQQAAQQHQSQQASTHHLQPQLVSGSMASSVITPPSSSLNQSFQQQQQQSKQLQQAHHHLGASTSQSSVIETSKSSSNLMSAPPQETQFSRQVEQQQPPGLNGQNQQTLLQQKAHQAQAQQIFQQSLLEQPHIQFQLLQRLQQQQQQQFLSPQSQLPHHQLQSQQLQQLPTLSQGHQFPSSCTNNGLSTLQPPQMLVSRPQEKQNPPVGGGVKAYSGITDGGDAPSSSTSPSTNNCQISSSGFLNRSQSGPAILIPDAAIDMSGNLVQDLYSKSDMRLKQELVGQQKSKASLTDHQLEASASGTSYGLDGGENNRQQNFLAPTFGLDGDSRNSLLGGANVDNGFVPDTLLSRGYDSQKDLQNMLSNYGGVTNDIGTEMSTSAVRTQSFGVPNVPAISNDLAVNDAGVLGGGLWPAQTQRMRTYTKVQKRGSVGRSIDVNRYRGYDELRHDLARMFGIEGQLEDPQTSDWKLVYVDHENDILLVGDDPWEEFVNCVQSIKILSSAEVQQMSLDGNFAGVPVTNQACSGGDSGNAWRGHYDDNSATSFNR
Sequence of UniProt O23661 (whole entry, looked up): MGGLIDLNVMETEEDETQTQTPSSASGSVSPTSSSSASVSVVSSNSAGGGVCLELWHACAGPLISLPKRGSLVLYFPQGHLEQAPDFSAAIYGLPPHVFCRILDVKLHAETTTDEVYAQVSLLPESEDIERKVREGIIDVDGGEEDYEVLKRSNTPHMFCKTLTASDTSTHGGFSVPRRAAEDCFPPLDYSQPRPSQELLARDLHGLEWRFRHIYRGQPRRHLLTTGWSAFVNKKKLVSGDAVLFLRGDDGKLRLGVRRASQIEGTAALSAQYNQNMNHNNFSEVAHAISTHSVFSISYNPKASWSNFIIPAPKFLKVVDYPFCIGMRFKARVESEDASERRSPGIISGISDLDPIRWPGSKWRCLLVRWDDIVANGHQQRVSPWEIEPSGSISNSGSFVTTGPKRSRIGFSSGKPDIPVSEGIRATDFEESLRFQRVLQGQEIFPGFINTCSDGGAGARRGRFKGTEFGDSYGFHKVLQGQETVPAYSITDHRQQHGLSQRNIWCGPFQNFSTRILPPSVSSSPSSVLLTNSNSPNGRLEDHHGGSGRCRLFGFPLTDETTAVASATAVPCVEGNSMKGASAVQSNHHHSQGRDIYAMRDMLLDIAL
Sequence of UniProt Q8LAL2 (whole entry, looked up): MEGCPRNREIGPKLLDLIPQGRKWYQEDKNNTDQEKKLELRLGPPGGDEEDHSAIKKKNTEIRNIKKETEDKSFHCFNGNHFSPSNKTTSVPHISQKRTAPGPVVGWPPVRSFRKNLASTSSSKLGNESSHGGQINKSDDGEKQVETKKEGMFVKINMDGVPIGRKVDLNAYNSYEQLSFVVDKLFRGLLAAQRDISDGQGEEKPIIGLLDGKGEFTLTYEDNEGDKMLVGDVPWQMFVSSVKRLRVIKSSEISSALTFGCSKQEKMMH
Sequence of UniProt Q38830 (whole entry, looked up): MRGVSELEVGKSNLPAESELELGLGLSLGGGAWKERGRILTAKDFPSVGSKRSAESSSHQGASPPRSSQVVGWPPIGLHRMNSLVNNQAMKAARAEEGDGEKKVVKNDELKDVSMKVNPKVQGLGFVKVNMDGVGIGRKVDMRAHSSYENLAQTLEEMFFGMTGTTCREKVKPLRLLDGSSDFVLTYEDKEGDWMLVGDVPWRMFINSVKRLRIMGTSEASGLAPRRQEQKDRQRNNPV
Sequence of UniProt Q9XFM0 (whole entry, looked up): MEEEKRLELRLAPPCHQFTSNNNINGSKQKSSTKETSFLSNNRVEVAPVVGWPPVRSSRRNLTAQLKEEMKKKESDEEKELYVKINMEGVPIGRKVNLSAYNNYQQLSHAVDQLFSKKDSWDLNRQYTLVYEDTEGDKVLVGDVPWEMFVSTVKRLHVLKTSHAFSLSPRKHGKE
Sequence of UniProt O24410 (whole entry, looked up): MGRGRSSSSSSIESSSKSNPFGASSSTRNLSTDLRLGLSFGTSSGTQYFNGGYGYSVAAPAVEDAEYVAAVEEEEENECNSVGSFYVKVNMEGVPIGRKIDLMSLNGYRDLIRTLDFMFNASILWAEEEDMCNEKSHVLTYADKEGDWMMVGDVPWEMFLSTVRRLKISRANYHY
Sequence of UniProt Q93WC4 (whole entry, looked up): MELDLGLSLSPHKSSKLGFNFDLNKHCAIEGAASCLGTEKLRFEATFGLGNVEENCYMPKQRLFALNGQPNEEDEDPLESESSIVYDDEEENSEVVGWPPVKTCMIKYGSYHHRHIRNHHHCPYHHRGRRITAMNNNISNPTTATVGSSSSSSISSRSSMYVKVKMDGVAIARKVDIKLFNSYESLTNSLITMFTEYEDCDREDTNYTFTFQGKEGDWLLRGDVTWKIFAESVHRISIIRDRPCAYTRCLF

Block 1
Target: CREBRF, bZIP domain (human)
Technique: DHFR protein complementation
Matrix: yeast
Notes: single substitutions, most at no-binding floor
Baseline: wild-type JUN-FOS pair
Reading: higher = stronger binding
Starting sequence: JUN, bZIP domain (human); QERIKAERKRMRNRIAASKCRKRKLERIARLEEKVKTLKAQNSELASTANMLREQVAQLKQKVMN; partner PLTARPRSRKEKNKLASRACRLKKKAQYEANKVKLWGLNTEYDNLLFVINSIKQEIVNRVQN
`T37L` gave a binding fitness of -1.3 natural log.
The binding fitness of `M51E` is reported as -1.52 natural log.
The binding fitness of `V56H` is reported as -1.6 natural log.
`N42K` gave a binding fitness of -1.38 natural log.
The binding fitness of `V35Q` is reported as -1.47 natural log.
`E54C` gave a binding fitness of -1.54 natural log.
`K39R` has a binding fitness of -1.28 natural log.
`R53W` gave a binding fitness of -1.52 natural log.
`L31S` gave a binding fitness of -1.38 natural log.
The binding fitness of `L45D` is reported as -1.28 natural log.
With `L52N` the binding fitness was -1.39 natural log.
The binding fitness of `S47D` is reported as -1.54 natural log.
For `E44Q`, the binding fitness was -1.47 natural log.
`N42V` gave a binding fitness of -1.47 natural log.
`K39P` gave a binding fitness of -1.51 natural log.
`Q55I` gave a binding fitness of -1.56 natural log.
With `Q55D` the binding fitness was -1.35 natural log.
`V56W` has a binding fitness of -1.49 natural log.

Block 2
Target: Interferon regulatory factor 3, full length, phosphomimetic (IRF3, Homo sapiens, UniProt Q14653, residues 1-427, S386D/S396D/S398D/S402D/T404D/S405D)
Technique: protein-binding microarray
Form: double-stranded DNA, one strand shown
Matrix: in vitro
Tested at: 2540 nM top
Notes: 60-bp whole probe
Added: salmon DNA 0.4 mg/ml
Baseline: random background probes
Reading: higher = stronger binding
Shared flanks, not repeated: GCCTAGCAC … GTCTTGATTCGCTTGACGCTGCTG
Construct (chain): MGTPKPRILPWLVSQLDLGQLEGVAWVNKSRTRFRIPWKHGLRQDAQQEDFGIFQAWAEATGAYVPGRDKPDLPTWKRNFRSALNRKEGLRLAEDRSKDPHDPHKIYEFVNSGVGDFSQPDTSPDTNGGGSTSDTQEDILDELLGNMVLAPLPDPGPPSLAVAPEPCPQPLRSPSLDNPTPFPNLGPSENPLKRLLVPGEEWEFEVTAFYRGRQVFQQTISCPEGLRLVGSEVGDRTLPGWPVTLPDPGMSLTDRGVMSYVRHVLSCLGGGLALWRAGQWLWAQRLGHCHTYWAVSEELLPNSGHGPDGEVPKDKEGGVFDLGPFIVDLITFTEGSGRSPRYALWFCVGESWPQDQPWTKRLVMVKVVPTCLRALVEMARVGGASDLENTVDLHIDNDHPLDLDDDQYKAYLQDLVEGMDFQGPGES
`GACGGTTTCAGTATCGGGACGTGCTAG`: “fitted relative affinity” 5.25 z-score.
`ATGCCCCCCAAGAGGGGCGGGTGCTAG` — result for “fitted relative affinity”: -0.144 z-score.
For `CTTTTTTTTTTTTTTTTTTGGTGCTAG`, “fitted relative affinity” read 2.94 z-score.
`TTACGTATCCTTATCCTTTAGTGCTAG` — result for “fitted relative affinity”: 4.64 z-score.
`GACGGTATCGTCTTTCGGGACGTGCTA`: “fitted relative affinity” 1.31 z-score.
`TTAGGGCTGCTTCTCCTTTAGTGCTAG` — result for “fitted relative affinity”: -0.48 z-score.
For `GACGATATCGGGGTTCGAGACGTGCTA`, “fitted relative affinity” read -0.0876 z-score.
For `TTAGGTTTCGGGTTTTGGTTAGTGCTA`, “fitted relative affinity” read 4.92 z-score.
For `TTAGGTATCGACACTGGGTCAGTGCTA`, “fitted relative affinity” read 0.196 z-score.
`TCATGTCTTCCCCTCTCACTGTGCTAG` — result for “fitted relative affinity”: 0.442 z-score.
`TTAGGACTGCTTATCATTTAGTGCTAG` — result for “fitted relative affinity”: -0.266 z-score.
For `TCAGGTATGGCCTATTTAACTGTGCTA`, “fitted relative affinity” read -0.323 z-score.
For `TTAGGTATCAGACTGGGTTAGTGCTAG`, “fitted relative affinity” read 1.19 z-score.
`TTAGGACTGGTCACTGGGTTAGTGCTA` — result for “fitted relative affinity”: -0.823 z-score.
`TCCATTTTGTGTTTTCATTTGTGCTAG`: “fitted relative affinity” 2.53 z-score.
For `GCCTTTTATTTGAAAGAAATGTGCTAG`, “fitted relative affinity” read 2.03 z-score.
For `GACGAACTGACTCTCGAGACGTGCTAG`, “fitted relative affinity” read -0.0895 z-score.
`GACGGTTCCCTGTTCCTGACGTGCTAG` — result for “fitted relative affinity”: 1.92 z-score.
For `GACGGTTCCGGGTTTCGGGACGTGCTA`, “fitted relative affinity” read 2.43 z-score.
`GACGGTATCGGTATCAGGACGTGCTAG`: “fitted relative affinity” 4.61 z-score.
`TTAGGTCTCCCACTGCTTTAGTGCTAG` — result for “fitted relative affinity”: 0.392 z-score.
Under “fitted relative affinity”, `GGCGAACTGGGGTATCGAGACGTGCTA` is recorded as -0.866 z-score.
`TTAGATTTCGGGTGTCGATTAGTGCTA` — result for “fitted relative affinity”: 1.02 z-score.
Under “fitted relative affinity”, `GACGGACTGGGTTACGGGACGTGCTAG` is recorded as -0.597 z-score.
Under “fitted relative affinity”, `TTCGGACTGGGTATCGGTTAGTGCTAG` is recorded as 0.438 z-score.

Block 3
Target: Histone acetyltransferase KAT6A, winged helix 1, GST fusion (KAT6A, Homo sapiens, UniProt Q92794, residues 1-85)
Technique: protein binding microarray
Form: double-stranded DNA, one strand shown
Matrix: in vitro
Tested at: not given
Notes: 8-mer, flanks averaged, mean of 2 arrays, mostly near background
Baseline: not given
Reading: higher = stronger binding
Residues (chain): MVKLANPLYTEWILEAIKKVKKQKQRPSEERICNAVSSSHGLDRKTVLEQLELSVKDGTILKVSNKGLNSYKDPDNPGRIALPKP
`ATCCCATG` gave an E-score of -0.173.
With `ACAAGAGT` the E-score was -0.332.
For `AGACCCCG`, the E-score was 0.00012.
For `AGCCTGAT`, the E-score was -0.19.
`ATTACCGA` has an E-score of -1.5e-05.
`GAGTTGCC` has an E-score of 0.104.
`ATAATTAA` gave an E-score of -0.0895.
`ATCGAGGG` has an E-score of -0.0472.
With `CTAGTCTC` the E-score was -0.178.
The E-score of `AGAGAGGC` is reported as -0.356.
`GTATCTTA` gave an E-score of -0.004.
The E-score of `CCGAGATA` is reported as -0.0033.
The E-score of `AAGGGAGC` is reported as -0.183.
The E-score of `AAGCGCCT` is reported as 0.24.
The E-score of `AAGGCGGA` is reported as 0.218.
With `GATCAAAA` the E-score was -0.0658.
`GGCTAGGA` gave an E-score of -0.189.
`TGTGCCAA` gave an E-score of -0.233.
`CCGCCTTA` has an E-score of 0.211.
The E-score of `AGATGGGA` is reported as -0.217.
`CCTCATGA` gave an E-score of -0.157.
`AAGCCCAC` gave an E-score of -0.165.
For `CCCGCACA`, the E-score was 0.358.
`AACGGGGC` gave an E-score of 0.273.
The E-score of `GGATGACC` is reported as 0.0686.

Block 4
Target: CCNE1, cyclin fold, Cln2 fusion (human)
Technique: yeast growth competition, sequencing
Matrix: yeast
Notes: strong parent motif
Baseline: not given
Reading: higher = stronger binding
Starting sequence: CCP110 docking peptide (human); EKVKRRLDLDIDG
`R5A`: “normalised enrichment score” 0.124.
Under “normalised enrichment score”, `R5A L7A` is recorded as 0.194.
Under “normalised enrichment score”, `R5K L9F` is recorded as 4.6.
For `K2A`, “normalised enrichment score” read 2.
`V3A`: “normalised enrichment score” 1.72.
Under “normalised enrichment score”, `D10A` is recorded as 1.77.
For `R5K`, “normalised enrichment score” read 0.363.
`E1A` — result for “normalised enrichment score”: 2.23.
`L9A`: “normalised enrichment score” 0.243.
`D8A` — result for “normalised enrichment score”: 1.31.

Block 5
Molecule: B1 (IAA1)
Technique: two-hybrid
Reading: higher = firmer interaction
B1: IAA1 (Arabidopsis thaliana, UniProt P49677); chain MEVTNGLNLKDTELRLGLPGAQEEQQLELSCVRSNNKRKNNDSTEESAPPPAKTQIVGWPPVRSNRKNNNNKNVSYVKVSMDGAPYLRKIDLKMYKNYPELLKALENMFKFTVGEYSEREGYKGSGFVPTYEDKDGDWMLVGDVPWDMFSSSCQKLRIMKGSEAPTAL
IAA18 (Arabidopsis thaliana, UniProt O24408); baseline: out of 4 tests — positive tests: 2.
For IAA29 (Arabidopsis thaliana, UniProt Q93WC4); baseline: out of 4 tests: positive tests read 0.
It gave 0 for positive tests (IAA11 (Arabidopsis thaliana, UniProt Q38829); weak activation fusion; baseline: out of 2 tests).
For IAA26 (Arabidopsis thaliana, UniProt Q8LAL2); baseline: out of 2 tests: positive tests read 0.
It gave 1 for positive tests (IAA20 (Arabidopsis thaliana, UniProt O24410); weak activation fusion; baseline: out of 4 tests).
The positive tests was 4 (IAA28 (Arabidopsis thaliana, UniProt Q9XFM0); baseline: out of 4 tests).
The positive tests was 3 (ARF7 1030-1164 (Arabidopsis thaliana, UniProt P93022); baseline: out of 4 tests).
IAA12 (Arabidopsis thaliana, UniProt Q38830); baseline: out of 4 tests — positive tests: 1.
It gave 0 for positive tests (ETT (Arabidopsis thaliana, UniProt O23661); baseline: out of 2 tests).
